Measurements collected from several papers.
Numbered parts are unrelated; each lists some results of a single study. Changes are numbered by the printed parent chain.

Block 1
Target: CCNB3, cyclin fold, Cln2 fusion (human)
Technique: yeast growth competition, sequencing
Matrix: yeast
Setting: weak parent motif
Reference: not given
Reading: higher = stronger binding
Parent: PKN2 docking peptide (human); DSTVTKLDFDLEP
`D1A` — result for “normalised enrichment score”: 0.135.
`T5A`: “normalised enrichment score” -0.0435.
Under “normalised enrichment score”, `L11A` is recorded as 0.0345.
`T3A` — result for “normalised enrichment score”: 0.0169.
Under “normalised enrichment score”, `D10A` is recorded as -0.157.
`E12A`: “normalised enrichment score” -0.227.

Block 2
Target: RING finger protein unkempt homolog, zinc fingers 1-6, GST-SBP tag (UNK, Homo sapiens, UniProt Q9C0B0, residues 30-357)
Technique: RNA Bind-n-Seq
Form: RNA
Matrix: in vitro
Tested at: not given
Setting: RNA with constant flanks, human and mouse sites, ends assumed
Reference: input RNA pool
Reading: higher = stronger binding
Constant ends, left off below: GGGAGUUCUACAGUCCGACGAUC … CAACAGAGGAUUGAGCAUCA
Target sequence (chain): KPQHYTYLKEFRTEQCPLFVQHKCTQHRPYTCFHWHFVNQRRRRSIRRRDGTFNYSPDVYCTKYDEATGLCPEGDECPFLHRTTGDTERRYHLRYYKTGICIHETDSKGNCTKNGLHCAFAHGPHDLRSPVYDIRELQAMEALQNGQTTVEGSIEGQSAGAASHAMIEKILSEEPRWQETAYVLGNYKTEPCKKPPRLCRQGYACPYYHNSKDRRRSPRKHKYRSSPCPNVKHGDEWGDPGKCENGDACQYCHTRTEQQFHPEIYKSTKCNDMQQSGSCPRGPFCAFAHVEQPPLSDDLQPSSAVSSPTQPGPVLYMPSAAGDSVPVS
For `UCUAGUCGGGCACAGCAAAUGCAUGCCUUUUCCUGGAUUCGAAAUACCUUAGAGGAGCAUCCUGAGACGUCACUCCCCAAACAGGAAGUCUAUGAUGAAUACAAGAGCUACUGCGACAAU`, the bound/input enrichment was 0.207 ratio.
`GUGCUCCCCCGGGAUCUCUUCCAAAAGCUCUUCAGACAGGACUUGCUGGUGGCUAGUCUGUUUCGAAAUUUUUUAUUGGCGGAAAGGAUUAUGAGGUCGUAUAACUGCACUCCCGUCAGC` has a bound/input enrichment of 0.294 ratio.
`CAGGCUGACUAUGUGCCGAGCGAUCAGGACCUGCUUCGCUGCCGUGUCCUGACUUCUGGAAUCUUUGAGACCAAGUUCCAGGUGGACAAAGUCAACUUCCACAUGUUUGACGUGGGUGGC` has a bound/input enrichment of 0.0914 ratio.
For `GAAGCAGAAAAGAUUGAUGGAGCAGCUUCACAAGGAAAGUCUUCGUGCUCGGUGAUGUGACAAUUCUGCUGCAGAGCCUGCGGACACUGGGGAUAUAUUCCACCUGAGGAAGCAAACUGC`, the bound/input enrichment was 0.0974 ratio.
The bound/input enrichment of `CCAGAUGACCGGUCACAGGGAGCAAUCAUUGCUGACCGGCCAGGGCUGCCUGGCCCAGAGCAUAGCCCUUCAGAAUCCCAGCCUUCGUCGCCUUCUCCGACCCCAUCACCAUCCCCAGUC` is reported as 0.229 ratio.
`GCCAGGCCGUAUACUGGGUUCACAUAUCAGGCUGCAGGAAAGGCAGUAUGAUAUAAGGUAAGGGCAUAGGAAAUGAAGCUGAAAUGGACACACACACACACACACACACUGAUAAACUUG` gave a bound/input enrichment of 1.14 ratio.
`GCCACAAAAUAUUUAAUGUGUUGUGCCUUCAUGAUGUAACAGAACAUUCUCCAGGUAGGGUAGUUGGGGGAAAUAAAGGGAUAAAUCUCUAAUUAUUGCUGUUUAACUGUUUGUUAUCAU` gave a bound/input enrichment of 0.565 ratio.
With `AACCAAGGCAUUGCUCCCGUCCAGGUCUGUACCAAUCUCUUGAUCAAGCAAGUGGUGGAAGUAGCUUGUGGCUCACAUCAUUCAAUGGCUCUGGCAGCUGAUGGAGAGGUGUUUGCUUGG` the bound/input enrichment was 0.124 ratio.
`UGCAAUUAUGCCAAACAGUAUUGAGCAGAAUAAUUUAUUUCUUUUUUUUCUUUUGCUUUAAAUCAUGAAUCCCGCCAGGUACGGUGGCUCACACCUGUCAUCCCAGCACUUUGGGAGGCC` gave a bound/input enrichment of 1.63 ratio.
The bound/input enrichment of `GGCCGGGGCCUGGGCCUGAGCAUCGUUGGGAAACGAAAUGGAAGCGGAGUGUUUAUUUCUGACAUCGUGAAAGGCGGAGCCGCAGACCUGGAUGGGAGAUUGAUUCAGGGAGAUCAGAUC` is reported as 0.296 ratio.
`UGGGUUUGGGGUAGAAGGGUGGGAAGGGGCAGGAUAAGUGGAAUCUCUAGGGUGUAUGGGAAGUAGAGGGCAGUUAGUUCUAAGUGGGCUUUUAUGUUCCCUGUUGUGAGGGUGAGAACA` has a bound/input enrichment of 37.7 ratio.

Block 3
Target: Histone acetyltransferase KAT6A, both winged helices, GST fusion (KAT6A, Homo sapiens, UniProt Q92794, residues 1-181)
Technique: protein binding microarray
Form: double-stranded DNA, one strand shown
Matrix: in vitro
Tested at: not given
Setting: 8-mer, flanks averaged, mean of 2 arrays, mostly near background
Reference: not given
Reading: higher = stronger binding
Target sequence (chain): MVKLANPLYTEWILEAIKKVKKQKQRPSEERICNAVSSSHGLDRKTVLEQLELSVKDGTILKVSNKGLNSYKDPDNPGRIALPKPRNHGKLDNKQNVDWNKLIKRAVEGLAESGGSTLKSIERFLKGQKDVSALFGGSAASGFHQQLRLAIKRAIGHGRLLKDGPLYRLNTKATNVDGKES
With `CCTTTGAG` the E-score was -0.0891.
`ATTGGTTA` has an E-score of -0.177.
The E-score of `ACCGCACT` is reported as 0.141.
With `CAGCCTAG` the E-score was -0.208.
For `CAGTATAG`, the E-score was -0.0497.
The E-score of `AGTTTACC` is reported as -0.0806.
`AATAATAG` gave an E-score of -0.188.
The E-score of `ATCTCATC` is reported as -0.175.
`GGACCCCC` has an E-score of 0.021.
`AGCGTTTC` gave an E-score of 0.129.
`GCGACAAA` gave an E-score of 0.0626.
With `GTACTCTA` the E-score was -0.05.
With `ACACGACA` the E-score was -0.136.
`GCGTTCCA` has an E-score of 0.0665.
For `ACATAGAC`, the E-score was -0.0926.
`AACACTAA` gave an E-score of 0.076.
For `CATCTCGA`, the E-score was -0.123.
`TAAACATA` has an E-score of -0.0156.
With `GGCCTTCA` the E-score was 0.0487.
`AAGCCTTC` gave an E-score of -0.0905.
For `AGCCTAGA`, the E-score was -0.073.
The E-score of `GGAGATTA` is reported as -0.00885.
The E-score of `AGCGAGGA` is reported as -0.057.
The E-score of `GCTCCGCC` is reported as 0.0868.

Block 4
Target: Ras GTPase-activating protein-binding protein 1, full length (G3BP1, Homo sapiens, UniProt Q13283)
Sequence of UniProt Q13283 (whole entry, looked up): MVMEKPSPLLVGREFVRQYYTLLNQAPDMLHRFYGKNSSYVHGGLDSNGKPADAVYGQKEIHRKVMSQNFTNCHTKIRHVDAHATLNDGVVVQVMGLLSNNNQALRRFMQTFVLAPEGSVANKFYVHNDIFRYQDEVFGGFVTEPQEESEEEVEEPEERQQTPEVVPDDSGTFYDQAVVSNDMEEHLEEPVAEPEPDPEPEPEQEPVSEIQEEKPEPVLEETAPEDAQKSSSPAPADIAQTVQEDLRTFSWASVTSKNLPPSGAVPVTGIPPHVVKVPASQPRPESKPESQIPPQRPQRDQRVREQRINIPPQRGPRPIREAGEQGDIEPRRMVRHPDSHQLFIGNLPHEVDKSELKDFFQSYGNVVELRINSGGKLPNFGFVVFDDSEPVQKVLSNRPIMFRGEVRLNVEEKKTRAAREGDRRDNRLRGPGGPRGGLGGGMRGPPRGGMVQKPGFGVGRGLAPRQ
Technique: RNA Bind-n-Seq
Form: RNA
Matrix: in vitro
Tested at: 200 nM
Setting: whole 134-nt RNA, ends assumed
Together with: 150 mM LiCl
Reference: input library
Reading: higher = stronger binding
Each molecule: 7-deaza-guanosine replaces G
Constant ends, left off below: GGGAGUUCUACAGUCCGACGAUC … UGGAAUUCUCGGGUGUCAAGG
For `CUCAAGUCCUGUGCUACACAUCGUAUGUACCGAAUCGGGUUGGUUGGGGUUGGGAAAGUAUUAUGUUACGCCGUUCGGAUCUGCACUUCC`, the log2 enrichment was 0.178.
The log2 enrichment of `CCUCAAGUCCUGUGCUACACAUCGUAUGUACCGAAUCGGUGGUUUUUGGUGGAAAGUAUUAUGUUACGCCGUUCGGAUCUGCACUUCCAG` is reported as 0.409.
The log2 enrichment of `UGUGGGUCCUCCUGCACCUGGUGCUGGCCUUCCUGUCCCUGCGCUCUUUGACAGCCUCCUGACCUGUAGGACGAGGGAUUCCUUGUUCUU` is reported as 0.697.
`GCAGGAAGUAAAAACAAAUGGAAAUGCUUCGGAUAGUAAAAGGGGUGGGGGUUGCUAAGGAAAGGGUGGGAUGGGAGUGGGUAAAGAGUU` gave a log2 enrichment of 0.209.
`GCAGGAAGUAAAAACAAAUGGAAAUGCUUCGGAUAGUGGCAGGGGUGGGGGUUGCUAAGGAAAGGGUGGGAUGGGAGCGGGUAAAGAGUU` has a log2 enrichment of 0.335.
With `AGUCCUGUGCUACACAUCGUAUGUACCGAAUCGGGGUUUUUUUGGGGUGGGGUGGGGAAAGUAUUAUGUUACGCCGUUCGGAUCUGCACU` the log2 enrichment was 0.351.
`UGGCCCUGGUGGCAUGCGGGGAGGAAGAGGCGGCCUCAUGGAUCGUGGUGGUCCCGGUGGAAUGUUCAGAGGUGGCCGUGGUGGAGACAG` has a log2 enrichment of 0.0449.
With `CUGUGCUACACAUCGUAUGUACCGAAUCGGGCCCCCCCGGGCCCCCCCGGCCCCCCCGGGGAAAGUAUUAUGUUACGCCGUUCGGAUCUG` the log2 enrichment was -0.574.
With `UGGGAGGUGGAUUUUGUUUAUUUUUUUAGCUCAUUUCCAGGGGUGGGAAUUUUUUUUUAAUAUGUGUCAUGAACAAAGUUGUUUUUGAAA` the log2 enrichment was -0.188.
For `GUCCUGUGCUACACAUCGUAUGUACCGAAUCGGUUUUUUGGGUUUUUUGGUUUUUUGGGAAAGUAUUAUGUUACGCCGUUCGGAUCUGCA`, the log2 enrichment was -1.26.
`UAACUUUAGAGGAGGAUCUGAUGGAUAUGGCAGUGGACGUGGAUUUGGGGAUGGCUAUAAUGGGUAUGGCGGAGGACCUGGAGGUGGCAA` has a log2 enrichment of 0.0365.

Block 5
Target: MAFF, bZIP domain (human)
Technique: DHFR protein complementation
Matrix: yeast
Setting: single substitutions, most at no-binding floor
Reference: wild-type JUN-FOS pair
Reading: higher = stronger binding
Parent: JUN, bZIP domain (human); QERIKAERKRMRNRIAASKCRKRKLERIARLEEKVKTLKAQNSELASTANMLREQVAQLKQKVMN; partner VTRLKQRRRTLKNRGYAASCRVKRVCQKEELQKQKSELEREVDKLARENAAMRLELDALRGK
The binding fitness of `Q41T` is reported as -1.47 natural log.
`E44P` has a binding fitness of -1.54 natural log.
`V56Q` has a binding fitness of -1.44 natural log.
The binding fitness of `V35H` is reported as -1.52 natural log.
`R30M` gave a binding fitness of -1.38 natural log.
With `T48R` the binding fitness was -1.48 natural log.
With `K39I` the binding fitness was -1.52 natural log.
`L45H` gave a binding fitness of -1.48 natural log.
`E33C` gave a binding fitness of -1.52 natural log.
`A29Y` has a binding fitness of -1.44 natural log.
`A40Q` has a binding fitness of -1.13 natural log.

Repeated from above (block 5):
With `K39I` the binding fitness was -1.52 natural log.
`R30M` gave a binding fitness of -1.38 natural log.
`L45H` gave a binding fitness of -1.48 natural log.
The binding fitness of `Q41T` is reported as -1.47 natural log.
`E44P` has a binding fitness of -1.54 natural log.
`V56Q` has a binding fitness of -1.44 natural log.
`A29Y` has a binding fitness of -1.44 natural log.
The binding fitness of `V35H` is reported as -1.52 natural log.
